Results collected from several papers.
Protocols differ between the studies behind these lines. “And” joins repeats or separate records; there may be more than shown.
Partner: itself
B1: CAT S167D (Homo sapiens, UniProt P04040); chain MADSRDPASDQMQHWKEQRAAQKADVLTTGAGNPVGDKLNVITVGPRGPLLVQDVVFTDEMAHFDRERIPERVVHAKGAGAFGYFEVTHDITKYSKAKVFEHIGKKTPIAVRFSTVAGESGSADTVRDPRGFAVKFYTEDGNWDLVGNNTPIFFIRDPILFPSFIHDQKRNPQTHLKDPDMVWDFWSLRPESLHQVSFLFSDRGIPDGHRHMNGYGSHTFKLVNANGEAVYCKFHYKTDQGIKNLSVEDAARLSQEDPDYGIRDLFNAIATGKYPSWTFYIQVMTFNQAETFPFNPFDLTKVWPHKDYPLIPVGKLVLNRNPVNYFAEVEQIAFDPSNMPPGIEASPDKMLQGRLFAYPDTHRHRLGPNYLHIPVNCPYRARVANYQRDGPMCMQDNQGGAPNYYPNSFGAPEQQPSALEHSIQYSGEVRRFNTANDDNVTQVRAFYVNVLNEEQRKRLCENIAGHLKDAQIFIQKKAVKNFTEVHPDYGSHIQALLDKYNAEKPKNAIHTFVQSGSHLAAREKANL
B2: kwaA (Escherichia coli, UniProt P0DW45); sequence looked up; chain MQRNTYNKVGLYILSLAMLFVFIIILTAKIPFCFTSDCSFIGLKKLVLTNIVPIVCFVFFLFSIYFYNRLKNITKYNGQDSVKITSCQSESYESLTFLATYIVPFMGFSFEDMQKNIAYLLLVVVIGIIFIKTDKYYANPTLALFGFKLYRVNILHPGSGETKNLIAISNDVLKVDDNVYYSFFDEFVFIARKKI
B3: priC (Escherichia coli, UniProt P23862); sequence looked up; chain MKTALLLEKLEGQLATLRQRCAPVSQFATLSARFDRHLFQTRATTLQACLDEAGDNLAALRHAVEQQQLPQVAWLAEHLAAQLEAIAREASAWSLREWDSAPPKIARWQRKRIQHQDFERRLREMVAERRARLARVTDLVEQQTLHREVEAYEARLARCRHALEKIENRLARLTR
B4: GroEL (Pseudomonas aeruginosa, UniProt P30718); sequence looked up; chain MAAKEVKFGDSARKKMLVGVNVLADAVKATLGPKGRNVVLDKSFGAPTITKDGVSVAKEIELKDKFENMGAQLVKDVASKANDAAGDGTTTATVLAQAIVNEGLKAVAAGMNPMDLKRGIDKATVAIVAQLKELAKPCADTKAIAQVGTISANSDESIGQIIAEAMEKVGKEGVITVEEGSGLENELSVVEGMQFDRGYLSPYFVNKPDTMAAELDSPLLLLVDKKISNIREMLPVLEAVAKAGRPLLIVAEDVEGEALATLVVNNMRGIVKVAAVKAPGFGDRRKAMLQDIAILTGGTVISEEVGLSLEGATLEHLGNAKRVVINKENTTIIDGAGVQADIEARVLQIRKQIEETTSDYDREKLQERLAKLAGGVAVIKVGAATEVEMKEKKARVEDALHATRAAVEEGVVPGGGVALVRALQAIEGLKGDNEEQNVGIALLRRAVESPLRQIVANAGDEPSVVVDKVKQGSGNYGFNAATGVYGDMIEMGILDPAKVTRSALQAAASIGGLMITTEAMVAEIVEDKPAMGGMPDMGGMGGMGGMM
B5: sso0001 1-202 (Sulfolobus solfataricus, UniProt Q97TX9); chain MITEFLLKKKLEEHLSHVKEENTIYVTDLVRCPRRVRYESEYKELAISQVYAPSAILGDILHLGLESVLKGNFNAETEVETLREINVGGKVYKIKGRADAIIRNDNGKSIVIEIKTSRSDKGLPLIHHKMQLQIYLWLFSAEKGILVYITPDRIAEYEINEPLDEATIVRLAEDTIMLQNSPRFNWECKYCIFSVICPAKLT
B6: ansA (Wolinella succinogenes, UniProt P50286); sequence looked up; chain MAKPQVTILATGGTIAGSGESSVKSSYSAGAVTVDKLLAAVPAINDLATIKGEQISSIGSQEMTGKVWLKLAKRVNELLAQKETEAVIITHGTDTMEETAFFLNLTVKSQKPVVLVGAMRSGSSMSADGPMNLYNAVNVAINKASTNKGVVIVMNDEIHAAREATKLNTTAVNAFASPNTGKIGTVYYGKVEYFTQSVRPHTLASEFDISKIEELPRVDILYAHPDDTDVLVNAALQAGAKGIIHAGMGNGNPFPLTQNALEKAAKSGVVVARSSRVGSGSTTQEAEVDDKKLGFVATESLNPQKARVLLMLALTKTSDREAIQKIFSTY
B7: HSP90-7 29-823 (Arabidopsis thaliana, UniProt Q9STX5); sequence looked up; chain NAEESSDDVTDPPKVEEKIGGHGGLSTDSDVVHRESESMSKKTLRSNAEKFEFQAEVSRLMDIIINSLYSNKDIFLRELISNASDALDKIRFLALTDKDVLGEGDTAKLEIQIKLDKAKKILSIRDRGIGMTKEDLIKNLGTIAKSGTSAFVEKMQSSGDLNLIGQFGVGFYSAYLVADYIEVISKHNDDSQYVWESKANGKFAVSEDTWNEPLGRGTEIRLHLRDEAGEYLEESKLKELVKRYSEFINFPISLWASKEVETEVPVEEDESADEETETTSTEEEKEEDAEEEDGEKKQKTKKVKETVYEWELLNDVKAIWLRSPKEVTEEEYTKFYHSLSKDFTDEKPMAWSHFNAEGDVEFKAVLYVPPKAPHDLYESYYNSNKANLKLYVRRVFISDEFDELLPKYLSFLKGLVDSDTLPLNVSREMLQQHSSLKTIKKKLIRKALDMIRKLAEEDPDEIHDDEKKDVEKSGENDEKKGQYTKFWNEFGKSVKLGIIEDAANRNRLAKLLRFETTKSDGKLTSLDQYIKRMKKSQKDIFYITGSSKEQLEKSPFLERLIKKGYEVIFFTDPVDEYLMQYLMDYEDKKFQNVSKEGLKVGKDSKDKELKEAFKELTKWWKGNLASENVDDVKISNRLADTPCVVVTSKFGWSANMERIMQSQTLSDANKQAYMRGKRVLEINPRHPIIKELKDRIASDPEDESVKETAQLMYQTALIESGFILTDPKDFAARIYNSVKSGLNISPDAVADEEIEAAEEPETSEATETKSDDLAGGLNIEAEPVEQQEENTKDEL
B8: Pah F80D (Rattus norvegicus, UniProt P04176); sequence looked up; chain MAAVVLENGVLSRKLSDFGQETSYIEDNSNQNGAISLIFSLKEEVGALAKVLRLFEENDINLTHIESRPSRLNKDEYEFDTYLDKRTKPVLGSIIKSLRNDIGATVHELSRDKEKNTVPWFPRTIQELDRFANQILSYGAELDADHPGFKDPVYRARRKQFADIAYNYRHGQPIPRVEYTEEEKQTWGTVFRTLKALYKTHACYEHNHIFPLLEKYCGFREDNIPQLEDVSQFLQTCTGFRLRPVAGLLSSRDFLGGLAFRVFHCTQYIRHGSKPMYTPEPDICHELLGHVPLFSDRSFAQFSQEIGLASLGAPDEYIEKLATIYWFTVEFGLCKEGDSIKAYGAGLLSSFGELQYCLSDKPKLLPLELEKTACQEYSVTEFQPLYYVAESFSDAKEKVRTFAATIPRPFSVRYDPYTQRVEVLDNTQQLKILADSINSEVGILCNALQKIKS
B9: CLCN3 1-818 (Homo sapiens, UniProt P51790); chain MESEQLFHRGYYRNSYNSITSASSDEELLDGAGVIMDFQTSEDDNLLDGDTAVGTHYTMTNGGSINSSTHLLDLLDEPIPGVGTYDDFHTIDWVREKCKDRERHRRINSKKKESAWEMTKSLYDAWSGWLVVTLTGLASGALAGLIDIAADWMTDLKEGICLSALWYNHEQCCWGSNETTFEERDKCPQWKTWAELIIGQAEGPGSYIMNYIMYIFWALSFAFLAVSLVKVFAPYACGSGIPEIKTILSGFIIRGYLGKWTLMIKTITLVLAVASGLSLGKEGPLVHVACCCGNIFSYLFPKYSTNEAKKREVLSAASAAGVSVAFGAPIGGVLFSLEEVSYYFPLKTLWRSFFAALVAAFVLRSINPFGNSRLVLFYVEYHTPWYLFELFPFILLGVFGGLWGAFFIRANIAWCRRRKSTKFGKYPVLEVIIVAAITAVIAFPNPYTRLNTSELIKELFTDCGPLESSSLCDYRNDMNASKIVDDIPDRPAGIGVYSAIWQLCLALIFKIIMTVFTFGIKVPSGLFIPSMAIGAIAGRIVGIAVEQLAYYHHDWFIFKEWCEVGADCITPGLYAMVGAAACLGGVTRMTVSLVVIVFELTGGLEYIVPLMAAVMTSKWVGDAFGREGIYEAHIRLNGYPFLDAKEEFTHTTLAADVMRPRRNDPPLAVLTQDNMTVDDIENMINETSYNGFPVIMSKESQRLVGFALRRDLTIAIESARKKQEGIVGSSRVCFAQHTPSLPAESPRPLKLRSILDMSPFTVTDHTPMEIVVDIFRKLGLRQCLVTHNGRLLGIITKKDILRHMAQTANQDPASIMFN
B10: TGFBI FAS1-4 domain, residues 502-657 R555W (Homo sapiens, UniProt Q15582); chain AGMGTVMDVLKGDNRFSMLVAAIQSAGLTETLNREGVYTVFAPTNEAFRALPPREWSRLLGDAKELANILKYHIGDEILVSGGIGALVRLKSLQGDKLEVSLKNNVVSVNKEPVAEPDIMATNGVVHVITNVLQPPANRPQERGDELADSALEIFKQA
B11: xseA H238A (Escherichia coli, UniProt P04994); sequence looked up; chain MLPSQSPAIFTVSRLNQTVRLLLEHEMGQVWISGEISNFTQPASGHWYFTLKDDTAQVRCAMFRNSNRRVTFRPQHGQQVLVRANITLYEPRGDYQIIVESMQPAGEGLLQQKYEQLKAKLQAEGLFDQQYKKPLPSPAHCVGVITSKTGAALHDILHVLKRRDPSLPVIIYPAAVQGDDAPGQIVRAIELANQRNECDVLIVGRGGGSLEDLWSFNDERVARAIFTSRIPVVSAVGAETDVTIADFVADLRAPTPSAAAEVVSRNQQELLRQVQSTRQRLEMAMDYYLANRTRRFTQIHHRLQQQHPQLRLARQQTMLERLQKRMSFALENQLKRTGQQQQRLTQRLNQQNPQPKIHRAQTRIQQLEYRLAETLRAQLSATRERFGNAVTHLEAVSPLSTLARGYSVTTATDGNVLKKVKQVKAGEMLTTRLEDGWIESEVKNIQPVKKSRKKVH
B12: clcA 1-465 C85A/K243C (Escherichia coli, UniProt P37019); chain MKTDTPSLETPQAARLRRRQLIRQLLERDKTPLAILFMAAVVGTLVGLAAVAFDKGVAWLQNQRMGALVHTADNYPLLLTVAFLASAVLAMFGYFLVRKYAPEAGGSGIPEIEGALEDQRPVRWWRVLPVKFFGGLGTLGGGMVLGREGPTVQIGGNIGRMVLDIFRLKGDEARHTLLATGAAAGLAAAFNAPLAGILFIIEEMRPQFRYTLISIKAVFIGVIMSTIMYRIFNHEVALIDVGCLSDAPLNTLWLYLILGIIFGIFGPIFNKWVLGMQDLLHRVHGGNITKWVLMGGAIGGLCGLLGFVAPATSGGGFNLIPIATAGNFSMGMLVFIFVARVITTLLCFSSGAPGGIFAPMLALGTVLGTAFGMVAVELFPQYHLEAGTFAIAGMGALLAASIRAPLTGIILVLEMTDNYQLILPMIITGLGATLLAQFTGGKPLYSAILARTLAKQEAEQLARSK
B13: SH3GL2 (Homo sapiens, UniProt Q99962); sequence looked up; chain MSVAGLKKQFHKATQKVSEKVGGAEGTKLDDDFKEMERKVDVTSRAVMEIMTKTIEYLQPNPASRAKLSMINTMSKIRGQEKGPGYPQAEALLAEAMLKFGRELGDDCNFGPALGEVGEAMRELSEVKDSLDIEVKQNFIDPLQNLHDKDLREIQHHLKKLEGRRLDFDYKKKRQGKIPDEELRQALEKFDESKEIAESSMFNLLEMDIEQVSQLSALVQAQLEYHKQAVQILQQVTVRLEERIRQASSQPRREYQPKPRMSLEFPTGDSTQPNGGLSHTGTPKPSGVQMDQPCCRALYDFEPENEGELGFKEGDIITLTNQIDENWYEGMLHGHSGFFPINYVEILVALPH
Sequence of UniProt A0A348FUE1 (whole entry, looked up): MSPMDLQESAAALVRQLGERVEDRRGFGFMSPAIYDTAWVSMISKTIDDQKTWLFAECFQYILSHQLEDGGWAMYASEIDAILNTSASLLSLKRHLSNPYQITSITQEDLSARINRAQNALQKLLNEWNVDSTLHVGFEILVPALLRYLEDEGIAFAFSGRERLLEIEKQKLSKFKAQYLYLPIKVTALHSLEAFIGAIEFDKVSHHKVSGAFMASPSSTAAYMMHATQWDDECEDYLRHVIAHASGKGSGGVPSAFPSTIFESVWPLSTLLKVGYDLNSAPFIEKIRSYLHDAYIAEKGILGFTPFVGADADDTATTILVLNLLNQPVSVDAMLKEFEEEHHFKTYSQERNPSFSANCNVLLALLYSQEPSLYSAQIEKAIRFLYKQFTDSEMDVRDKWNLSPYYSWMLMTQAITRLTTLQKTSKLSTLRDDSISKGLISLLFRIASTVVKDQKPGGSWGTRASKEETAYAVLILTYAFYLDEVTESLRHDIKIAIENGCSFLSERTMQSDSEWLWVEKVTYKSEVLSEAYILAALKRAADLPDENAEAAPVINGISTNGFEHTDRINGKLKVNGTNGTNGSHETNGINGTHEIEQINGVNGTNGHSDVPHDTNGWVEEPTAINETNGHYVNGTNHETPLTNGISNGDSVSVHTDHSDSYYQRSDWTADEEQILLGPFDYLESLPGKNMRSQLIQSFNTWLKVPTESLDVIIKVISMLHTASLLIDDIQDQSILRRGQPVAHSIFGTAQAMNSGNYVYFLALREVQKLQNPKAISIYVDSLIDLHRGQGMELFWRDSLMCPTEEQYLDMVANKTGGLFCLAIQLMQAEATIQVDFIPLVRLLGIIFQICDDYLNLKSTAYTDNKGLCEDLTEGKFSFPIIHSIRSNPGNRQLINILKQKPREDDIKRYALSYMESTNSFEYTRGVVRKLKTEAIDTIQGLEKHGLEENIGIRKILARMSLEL
Sequence of UniProt P22248 (whole entry, looked up): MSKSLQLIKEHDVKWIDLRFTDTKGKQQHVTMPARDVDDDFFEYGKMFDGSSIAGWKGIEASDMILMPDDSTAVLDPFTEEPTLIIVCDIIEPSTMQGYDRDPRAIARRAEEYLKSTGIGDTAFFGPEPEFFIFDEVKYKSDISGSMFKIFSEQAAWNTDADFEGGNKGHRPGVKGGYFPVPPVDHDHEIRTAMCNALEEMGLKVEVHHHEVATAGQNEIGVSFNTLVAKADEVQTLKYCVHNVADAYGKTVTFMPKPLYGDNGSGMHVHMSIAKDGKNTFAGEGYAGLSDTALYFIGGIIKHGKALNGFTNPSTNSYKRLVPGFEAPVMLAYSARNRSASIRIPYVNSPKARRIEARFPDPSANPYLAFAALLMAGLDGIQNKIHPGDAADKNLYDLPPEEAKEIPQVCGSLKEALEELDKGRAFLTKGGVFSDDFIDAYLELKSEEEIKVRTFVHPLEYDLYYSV

Substance	technique	molecule type	cell line	notes	subunits per oligomer
EWEALEKKLAALESKCQALEKKLQALEKKLEALEHG (designed peptide; D-Leu12/N-acetyl/C-amide)	crystal structure	peptide	–	–	3
B1 (CAT S167D)	cross-linking	–	CaSki	–	2 and 4
B2 (kwaA)	SEC	–	–	–	4
B3 (priC)	AUC	–	–	–	4 and 2
B4 (GroEL)	SEC-MALS	–	–	–	14
B5 (sso0001 1-202)	AUC	–	–	–	9.5 protomers
B6 (ansA)	SEC-MALS	–	–	–	4
B7 (HSP90-7 29-823)	SEC	–	–	–	2
B8 (Pah F80D)	SEC	–	–	–	4
protein (Penicillium verruculosum, UniProt A0A348FUE1)	native gel	–	–	–	4
B9 (CLCN3 1-818)	cryo-EM	–	–	C2 symmetry	2
B10	cross-linking	–	–	–	2
B11 (xseA H238A)	cryo-EM	–	–	–	4
B12 (clcA 1-465 C85A/K243C)	SEC	–	–	–	2
glnA (Azotobacter vinelandii, UniProt P22248)	cryo-EM	–	–	–	12
B13 (SH3GL2)	SEC-SAXS	–	–	–	2
